Assay results collected from several papers.
Lines come from different studies, so protocols differ. “And” joins repeats or separate records; there may be more than shown. Numbers after ± are the reported error.

Compound	test	test system	setting	scale	quantity	value
Oc1nc2nonc2cc1Nc1c(F)c(F)c(F)c(F)c1F	indirect calorimetry	Western diet-fed mice	oral gavage, 130 mg/kg, 4 h	baseline: vehicle	oxygen consumption	increased
COc1ncc(-c2nc3c(n2C(C)C)[C@H](c2ccc(Cl)cc2)N(c2cc(Cl)cn(C)c2=O)C3=O)c(OC)n1	antileukemic activity, item: treatment failure, indeterminate cause	human, acute myeloid leukaemia	20 to 30 mg, low-dose	–	best overall response	28.6%
CO[C@H]1CC[C@H](N2C(=O)CNc3ncc(-c4ccc(C(C)(C)O)nc4)nc32)CC1	flow cytometry	stimulated B cells, human, blood	30 mg single dose, 3 h, median	baseline: baseline	pS6RP change from baseline	-73.6%
C=CC(=O)Nc1cc(Nc2nccc(Nc3cc(Cl)c(F)cc3C(C)(C)O)n2)c(OC)cc1N1CC[C@@H](N(C)C)C1	–	human, EGFR exon20ins NSCLC	dose not given, other subtypes	–	confirmed objective response rate	38.9%
NC1CS(=O)(=O)c2ccccc21 (centres unmarked)	CoA-CPM signal reduction, CPM fluorescence thiol	cell-free biochemical	assay interference counter-screen, added: CoA replacing acetyl-CoA	–	IC50	> 125 µM
Cl.N[C@@H](CC1=CCC(O)(c2nncnn2)C=C1)C(=O)O (some centres unmarked)	iEDDA cycloaddition	aqueous DMSO 25 %	37 °C, added: TCO-OH 15 mM	–	kobs	6.1 s⁻¹
O=C(O)CNC(=O)Cc1ccccc1	–	ventricular cardiomyocytes, C57BL/6 mouse	dose not given, 0.416 s	–	sarcomere length	1.72 µm
N#Cc1ccc2c(-c3ccncc3)c(-c3ccc(F)cc3)nn2c1	kinase binding, competitor, MIB/MS competition, item: NPR1	Candida albicans cell lysate	100 nM	baseline: DMSO	log2 fold change	-0.382
CC(C)c1ccc(S(=O)(=O)Nc2ccc(-c3nc4ccccc4s3)c(Cl)c2)cc1	CoA-CPM signal reduction, CPM fluorescence thiol	cell-free biochemical	assay interference counter-screen, added: CoA replacing acetyl-CoA	–	IC50	> 125 µM
C[C@H](Oc1ccc(Br)cc1-c1ccon1)C(=O)O	muscle velocity recovery cycles	human, tibialis anterior muscle	400 mg once daily, multiple doses, multiple ascending dose	baseline: placebo	relative refractory period	-0.541 ms
C[C@H]1C[C@H]2CSC(N)=N[C@@]2(c2nc(NC(=O)c3ccc(OC(F)F)cn3)cs2)CO1	item: Aβ1-40	healthy adults, plasma	200 mg single dose, 8 h post-dose	baseline: placebo	percent change from baseline	-87.7%
C=CCn1c(=O)c2cnc(Nc3ccc(N4CCN(C)CC4)cc3)nc2n1-c1ccc2c(n1)[C@@](O)(CC)CC2	–	NCI-H1299 xenograft, BALB/c nude mice	oral, 80 mg/kg once daily x 28, day 23	–	tumour volume difference	1260 ± 50.7 mm3
CCCC(CCC)C(=O)Oc1cccc(C(O)CCN)c1.O=CO (centres unmarked)	OCT at 500 µm from nerve head	Abca4-/-Rdh8-/- mice, photic damage	oral, 10 mg/kg, 7 days, added: 10,000 lx light, 30 min	–	ONL thickness	10.3 µm and 8.5 µm and 9.95 µm and 8.85 µm and 11 µm and 7.02 µm
CC[C@@H]1[C@H](F)C(=O)N[C@@H]1COc1nccc2cc(C(N)=O)c(OC)cc12	ATP-site probe binding, ActivX profiling, item: MARK2, MARK3	THP-1 cell lysate	0.01 mM, Lys2 site	–	inhibition	2.3%
CN1CC[C@H](c2c(O)cc(O)c3c(=O)cc(-c4ccccc4Cl)oc23)[C@H](O)C1	–	zebrafish embryos	dose not given, 24 hpf	–	RNA Pol II CTD Ser5 phosphorylation	decreased
Cc1nc(C(=O)N2CCC[C@H]2C(=O)N[C@@H](COC(C)(C)C)C(=O)N[C@@H](CC(C)C)C(=O)NC(C)(C)C(=O)N[C@@H](CC(C)C)C(=O)N[C@@H](CC(C)C)C(=O)NC(C)(C)C(=O)NC(C)(C)C(=O)NCCC(=O)NC2(CN(C)C)CCC2)co1	–	small unilamellar vesicles	concentration not given	–	calcein leakage	0%
Cc1noc(C)c1-c1cc(C(O)(c2ccccn2)c2ccccn2)c2nc(C3CC3)[nH]c2c1	item: HEXIM1 expression	human, peripheral blood	0.6 mg, day 8, 1599 study	–	maximum induction	26.3%
N=C(N)c1ccc(-c2ccc(-c3ccc(C(=N)N)cc3)o2)cc1	plasma clotting	normal human plasma	up to 100 µM	–	EC×1.5 prothrombin time	no effect
FC(F)(F)c1cc(Nc2nc(Cl)nc(Cl)n2)cc(C(F)(F)F)c1	HPLC-MS	–	pH 10.2, added: 50 mM N-α-acetyl-lysine	–	pseudo-first-order rate constant	8.9 h⁻¹
Cn1cc(Nc2nccc(-c3ccc4c(c3)CN(C3COC3)CC[C@H]4NC(=O)c3cn(C(C)(C)C)nn3)n2)cn1	item: Superpathway of Cholesterol Biosynthesis	splenic B cells, mouse	in vivo, 30 mg/kg, IgD-activated B cells	baseline: vehicle, positive = activation	pathway activation z-score	-2.89
Cc1cnc(N2CC3(CCOCC3)C2)c(C(=O)Nc2ccc(C(=O)N3CCc4cc(C(=O)Nc5c(C)cccc5F)sc4-c4ccccc43)cc2)c1	item: MCP3	human RSV infection, plasma	dose not given, AUC, ITT-IS population	baseline: placebo	inhibition	-11%
CNCc1cc(-c2ccccc2F)n(S(=O)(=O)c2cccnc2)c1	gastric acid secretion	dog Heidenhain pouch	oral, 3 mg/kg, 24 h after dosing, added: histamine	–	inhibition	61.9%
NC(=O)c1cnc2[nH]ccc2c1N[C@@H]1[C@@H]2CC3C[C@H]1C[C@@](O)(C3)C2	flow cytometry, item: CD8+ naive T cells	Japanese healthy subjects, peripheral blood	oral, 10 mg twice daily, day 4	–	change from baseline	0.75%
C=CCn1c(=O)c2cnc(Nc3ccc(N4CCN(C)CC4)cc3)nc2n1-c1cccc(C(C)(C)O)n1	–	HNSCC patients	dose not given, single agent first week, then cisplatin/docetaxel	–	histological response	-95%
CC(C)[C@H](C(=O)Nc1ccc(C(=O)NO)cc1)c1ccccc1	MRI volumetry	human, left parieto-occipital meningioma	dose not given, day 1143 post-treatment	–	tumour volume	0.102 cm³

Compound	test	test system	setting	scale	quantity	value
CC(c1cc2ccccc2s1)N(O)C(N)=O (centres unmarked)	–	human blood	3 µM, added: A23187	–	20-OH-LTB4 level	236 ± 96 pg/mL
Cn1cc([C@H]2C[C@H]3CSC(N)=N[C@@]3(c3ccc(F)cc3F)CO2)cn1	item: Aβx-40	Mus musculus wild-type, cerebrospinal fluid	subcutaneous, 50 mg/kg, 6 h	–	Aβ40 level	0.29 ng/mL
O=S1(=O)C=C(Sc2ccc(Cl)cc2)c2ccccc21	CoA-CPM signal reduction, CPM fluorescence thiol	cell-free biochemical	assay interference counter-screen, added: CoA replacing acetyl-CoA	–	IC50	> 125 µM
CSCCNc1nc(SCCC(F)(F)F)nc2c1ncn2[C@@H]1O[C@H](COP(=O)(O)OP(=O)(O)C(Cl)(Cl)P(=O)(O)O)[C@@H](O)[C@H]1O	platelet aggregation, light transmission aggregometry	human patients, platelet-rich plasma	dose not given, 3 h, added: TRAP 5 µM	–	patients with IPA above 80%	16.2%
N#Cc1ccc(Oc2ccc3c(c2)COB3O)cc1	–	mouse, oxazolone dermatitis, plasma	topical, 20 mg/ear, once daily, unit not given	baseline: vehicle	IL4 level difference	-28.9
C[C@H]1O[C@@H](O[C@H]2CC[C@@]3(C)[C@@H](CC[C@]4(C)[C@@H]3C=C[C@]35OC[C@@]6(CCC(C)(C)C[C@H]63)[C@@H](O)C[C@]54C)[C@]2(C)CO)[C@H](O)[C@@H](O[C@@H]2O[C@H](CO)[C@@H](O)[C@H](O)[C@H]2O)[C@H]1O	–	chronic-plus-binge ethanol mice, plasma	oral, 10 mg/kg/day for 7 d, 168 h	–	AST activity	44.5 U/L and 44 U/L and 43.1 U/L and 36.6 U/L and 42.5 U/L
Cc1n[nH]c2ccc(-c3cc(OC[C@@H](N)Cc4ccccc4)cnc3-c3ccoc3)cc12	kinase binding, competitor, MIB/MS competition, item: KSP1	Candida albicans cell lysate	1 µM	baseline: DMSO	log2 fold change	-0.354
N#CCC1CCN(c2nc(Nc3ccc(N4CCC(O)CC4)cc3)c3c(=O)[nH]ncc3n2)CC1	Olink multiplex	human, serum	40 mg, day 29, unit not given	baseline: baseline	IL-18 level change	-1.37
c1ccc(-c2n[nH]cc2-c2ccnc3ccccc23)nc1	kinase binding, competitor, MIB/MS competition, item: PKH2	Candida albicans cell lysate	10 µM	baseline: DMSO	log2 fold change	1.69
N=C(SC1CC(=O)N(c2ccc(Br)cc2)C1=O)N1N=C(c2ccccc2)CC1c1ccccc1 (centres unmarked)	CoA-CPM signal reduction, CPM fluorescence thiol	cell-free biochemical	assay interference counter-screen, added: CoA replacing acetyl-CoA	–	IC50	> 125 µM
CO[C@H]1C[C@@H]2CC[C@@H](C)[C@@](O)(O2)C(=O)C(=O)N2CCCC[C@H]2C(=O)O[C@H]([C@H](C)C[C@@H]2CC[C@@H](OC(=O)NCCOCCOCCOCCOCCOCCOCCOCCOCCC(=O)N3CCc4cc(Cn5nc(-c6ccc7oc(N)nc7c6)c6c(N)ncnc65)ccc4C3)[C@H](OC)C2)C[C@@H](O)[C@H](C)/C=C(\C)[C@@H](O)[C@@H](OC)C(=O)[C@H](C)C[C@H](C)/C=C/C=C/C=C/1C	RECIST v1.1	human	dose not given	–	tumour reduction	78%
C[C@@H](NC(=O)N1C(=O)[C@H](Cc2ccnc(N)c2)[C@H]1C(=O)O)C1CCCCC1	–	human	iv infusion, 2.25 mg/kg/h, 24 h	–	time to ACT Emax	24 h
CC(C)NCC(O)c1ccc(O)c(O)c1 (centres unmarked)	–	ventricular cardiomyocytes, C57BL/6 mouse	dose not given, 0.428 s	–	sarcomere length	1.72 µm
COc1nc(-c2cc(C)c(N[C@@H](C)c3cc(F)cc(F)c3)nn2)ccc1-n1cnc(C)c1	item: Aβ40	rat Sprague-Dawley male, brain	oral, 5 mg/kg daily for 9 days, 4 h after dose	baseline: vehicle	change in level	29%
[Cl][Ru][Cl].c1cnc2c(c1)ccc1cccnc12.c1cnc2c(c1)ccc1cccnc12.c1cnc2c(c1)ccc1cccnc12	–	air-saturated acetonitrile	–	–	singlet oxygen quantum yield	53%
CN1CC(Oc2cnc(C#N)cc2-c2ccn3nc(NC(=O)C4CC4)cc3c2)C1	–	Rag2-/- mouse, anti-CD40 colitis	dose not given, day 7	–	splenomegaly	decreased
C=CC[C@@H]1/C=C(\C)C[C@H](C)C[C@H](OC)[C@H]2O[C@@](O)(C(=O)C(=O)N3CCCC[C@H]3C(=O)O[C@H](/C(C)=C/[C@@H]3CC[C@@H](O)[C@H](OC)C3)[C@H](C)[C@@H](O)CC1=O)[C@H](C)C[C@@H]2OC	ELISA	rat	intraperitoneal, 0.5 mg/kg/day, day 18	baseline: vehicle	urinary EGF excretion	decreased
CN[C@@H]1COc2c(S(=O)(=O)NC(=O)Nc3c4c(cc5c3CCC5)CCC4)cnn2C1	item: IL-1β	human participants, whole blood ex vivo	900 mg single dose, 24 h, added: LPS/ATP	baseline: baseline	inhibition	84.1%
CCCSc1nsc(NC(=O)CN2CCN(c3ccccc3)CC2)n1	CoA-CPM signal reduction, CPM fluorescence thiol	cell-free biochemical	assay interference counter-screen, added: CoA replacing acetyl-CoA	–	IC50	> 125 µM
Cc1cn(-c2ccc3n(c2=O)CCN([C@@H](C)[C@@H]2CC[C@H](c4cc(F)c(Cl)cc4C(F)(F)F)O2)C3=O)cn1	–	human, CSF	300 mg single dose, serial CSF sampling	baseline: placebo and baseline	maximum CSF Aβ40 change	-22.3%
CN(C)C(=O)c1cc2cnc(Nc3ccc(N4CCNCC4)cn3)nc2n1C1CCCC1	RNA-seq GSEA, item: HALLMARK_UNFOLDED_PROTEIN_RESPONSE gene set	MB002 tumour	concentration not given	baseline: vehicle, direction not given	enrichment score	0.204
N=C(N/N=C/c1ccc2c(c1)OCO2)SC1CC(=O)N(c2ccc(Br)cc2)C1=O (centres unmarked)	CoA-CPM signal reduction, CPM fluorescence thiol	cell-free biochemical	assay interference counter-screen, added: CoA replacing acetyl-CoA	–	IC50	> 125 µM
OC(CCN1CCCCC1)(c1ccccc1)C1CC2C=CC1C2 (centres unmarked)	resting-state EEG	healthy elderly humans	oral, 2 mg, eyes closed, LS mean	–	power, theta EEG, Fz-Cz	3.5 µV²
O=C(CS(=O)(=O)c1cccc2nsnc12)Nc1cccc(Br)c1	CoA-CPM signal reduction, CPM fluorescence thiol	cell-free biochemical	assay interference counter-screen, added: CoA replacing acetyl-CoA	–	IC50	> 125 µM
CCO[C@H]1CCN(Cc2c(OC)cc(C)c3[nH]ccc23)[C@H](c2ccc(C(=O)O)cc2)C1	–	PNH patients, blood	oral, 25 mg then 100 mg, week 4, mean percent change	baseline: baseline	PNH RBC clone size	130%

Some of these lines once more:
Compound	test	test system	setting	scale	quantity	value
CN(C)C(=O)c1cc2cnc(Nc3ccc(N4CCNCC4)cn3)nc2n1C1CCCC1	RNA-seq GSEA, item: HALLMARK_UNFOLDED_PROTEIN_RESPONSE gene set	MB002 tumour	concentration not given	baseline: vehicle, direction not given	enrichment score	0.204
N=C(N/N=C/c1ccc2c(c1)OCO2)SC1CC(=O)N(c2ccc(Br)cc2)C1=O (centres unmarked)	CoA-CPM signal reduction, CPM fluorescence thiol	cell-free biochemical	assay interference counter-screen, added: CoA replacing acetyl-CoA	–	IC50	> 125 µM
OC(CCN1CCCCC1)(c1ccccc1)C1CC2C=CC1C2 (centres unmarked)	resting-state EEG	healthy elderly humans	oral, 2 mg, eyes closed, LS mean	–	power, theta EEG, Fz-Cz	3.5 µV²
O=C(CS(=O)(=O)c1cccc2nsnc12)Nc1cccc(Br)c1	CoA-CPM signal reduction, CPM fluorescence thiol	cell-free biochemical	assay interference counter-screen, added: CoA replacing acetyl-CoA	–	IC50	> 125 µM
CCO[C@H]1CCN(Cc2c(OC)cc(C)c3[nH]ccc23)[C@H](c2ccc(C(=O)O)cc2)C1	–	PNH patients, blood	oral, 25 mg then 100 mg, week 4, mean percent change	baseline: baseline	PNH RBC clone size	130%
